Measurements of several laboratories.
A part holds a random share of what one study measured. Changes are numbered by the printed parent chain.

Sample 1
Target: RNA binding protein fox-1 homolog 2, RRM domain, GST-SBP tag (RBFOX2, Homo sapiens, UniProt O43251-10, residues 100-194)
Method: RNA Bind-n-Seq
Molecule type: RNA
Sample: in vitro
Concentration: 365 nM
Notes: natural RNA segment, single round, ends assumed
Reference: no-protein control
Reading: higher = stronger binding
All sequences stand within: GGGAGUUCUACAGUCCGACGAUC … UGGAAUUCUCGGGUGCCAA
Construct (chain): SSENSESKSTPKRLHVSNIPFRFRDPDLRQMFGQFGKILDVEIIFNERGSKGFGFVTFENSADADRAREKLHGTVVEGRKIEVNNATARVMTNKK
Sequence | RBNS enrichment (R)
CCUCAGAGUGCCCUGUAUCCUACAUUUGUACAUGUAAGUAAGAGUGGCUUCCUGUCUCUCAGGUGCAUGCAGACACAGGGAAAGCAUCUUUGAGGGCAUUUAACUACAGG | 3.59
CUAGGAAGCCAACAGCAGGGCAGGUCAACUGUAGCUUAACCUUUAGAGCUCUUCAAGGUGCAGGGACUGCCUGCCCAGGCCCCAGCCCCAGACCUCACCUUUGACUGCCA | 0.329
GACUCAUAUCCAAUGGCUCCUAAGUGUUUGUCCUGUGCAAUAUACAGCCCAGGGAGGGAAGGGAAGCACGGCGAGGAGGGUGGGAAAGGUUCUCCCUCAGCCCACUAGCC | 1.78
AGCUCCUUGGAGGCUGGCAGGAGCAGAGAGGGGUGUGUGAGGGAGGAGAGCCUGUCUUGUUGGUGGGACCCUAAUUACCCCUGAGCCUCUCGGGAAUGCUUUUCCAGCAG | 0.833
UUGGAGGUCACAAGCAGCUGGCCAGGGUAAUGUCCCUUGGUCCAUGGGGCUGUGGCCCGUGCUGUAGUCUAUGGGCUCCUCCGUUCAAGCUGCAGCCCUGCUGGUCCCUU | 0.272
UGAAGGAAAGGAGAUGCCAGGAUGCUACUCCAUUCCUUCUCUGGGAAUUGCCAGUCCAACUUUUCCUGGCACUGGAAGAAAAAAAAUAAGUGUCCCACCCCUGGAGGGUU | 0.356
UGAGAAAUGGUGUAUGAUGCCUGGUGGUGGUAGGGGUGCGUAUUGAAACCCAGCGCGCAGUUCUCUUCUGUCAGCUUGUUUUUUUUAGAGUAAAAGGAAGAGAAAUAAAA | 1.93
UAGCACCAGAUUGGUUCCAAAUAGUUAAUGGAUGUGUGCACAUUUUCUGUUCAGGGAUUAAGACCAGAAUAUCAGUGGAUUUGUUUUCCCCACCAAGUGGCCUCUUAGAC | 1.89

Sample 2
Target: FOSL2, bZIP domain (human)
Method: DHFR protein complementation
Sample: yeast
Notes: single substitutions, most at no-binding floor
Reference: wild-type JUN-FOS pair
Reading: higher = stronger binding
Starting sequence: JUN, bZIP domain (human); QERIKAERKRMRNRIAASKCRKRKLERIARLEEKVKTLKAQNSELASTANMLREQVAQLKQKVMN; partner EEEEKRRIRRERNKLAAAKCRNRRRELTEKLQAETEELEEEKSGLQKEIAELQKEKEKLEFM
Change | binding fitness [natural log]
V35Y | -0.257
R53I | -0.573
A46T | 0.0976
E54Y | -0.214
A49C | -0.013
L52G | -1.42
E54L | -0.0688
T37E | 0.127
L45W | -1.05
Q55V | 0.00574
N42P | -1.03
S43G | 0.0726
T37N | 0.151
V35H | -0.378
T37H | 0.138
E44L | -0.0201
K36C | 0.135

Sample 3
Target: Ras GTPase-activating protein-binding protein 1, full length (G3BP1, Homo sapiens, UniProt Q13283)
Sequence of UniProt Q13283 (whole entry, looked up): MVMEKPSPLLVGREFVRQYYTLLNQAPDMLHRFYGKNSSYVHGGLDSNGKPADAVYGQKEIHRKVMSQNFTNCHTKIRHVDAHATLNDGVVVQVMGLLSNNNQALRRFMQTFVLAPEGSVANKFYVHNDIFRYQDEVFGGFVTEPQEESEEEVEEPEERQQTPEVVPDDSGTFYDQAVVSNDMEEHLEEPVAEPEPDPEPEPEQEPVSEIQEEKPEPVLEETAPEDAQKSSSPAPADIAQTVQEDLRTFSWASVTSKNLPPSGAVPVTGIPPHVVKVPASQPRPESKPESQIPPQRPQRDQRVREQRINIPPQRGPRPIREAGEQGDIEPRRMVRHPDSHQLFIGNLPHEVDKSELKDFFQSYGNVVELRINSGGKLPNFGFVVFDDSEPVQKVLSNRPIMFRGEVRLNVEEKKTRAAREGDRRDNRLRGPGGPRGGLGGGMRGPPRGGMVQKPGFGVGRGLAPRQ
Method: RNA Bind-n-Seq
Molecule type: RNA
Sample: in vitro
Concentration: 200 nM
Notes: whole 134-nt RNA, ends assumed
With: 150 mM LiCl
Reference: input library
Reading: higher = stronger binding
Library: 7-deaza-guanosine replaces G
All sequences stand within: GGGAGUUCUACAGUCCGACGAUC … UGGAAUUCUCGGGUGUCAAGG
Sequence | log2 enrichment
CUGUGCUACACAUCGUAUGUACCGAAUCGGGAAAAAAAGGGAAAAAAAGGGGAAAAAAAGGAAAGUAUUAUGUUACGCCGUUCGGAUCUG | 0.0544
UCAAGUCCUGUGCUACACAUCGUAUGUACCGAAUCGGUUUUUGGUUUUUGGAGGAAAGUAUUAUGUUACGCCGUUCGGAUCUGCACUUCC | 0.261
CUAGAGAGCUGUAGUACACAUGGAUGAACGACGAGAAGAACAAAUUGUACAGUUACUGAAUUCUGUUCAAGCGAAGAAUGAUAAAGAGUC | -1.14
UUCGACGAAACAAUUCGAAAGCCCAUCAGUUUGGGUUGUGGCCAUACUGUCUGCAAGAUGUGCCUGAAUAAACUCCACCGCAAGGCUUGC | 0.175
AAGUCCUGUGCUACACAUCGUAUGUACCGAAUCGGCCCCCGGGCCCCCGGCCCCCGGAAAGUAUUAUGUUACGCCGUUCGGAUCUGCACU | -0.502
CACAGACAACACGCACCCACACAGACACAGAGGGAAGGGGUUGGGAUGGGGACAAGGUGCACAGCAGGGCGGGGUAGGACCCCAGCCCCU | -0.0471
AGUCCUGUGCUACACAUCGUAUGUACCGAAUCGGGAAAAAAAGGGAGGGAAAAAGGGAAAGUAUUAUGUUACGCCGUUCGGAUCUGCACU | -0.804
UUGGAUGAAGAUGGCAAAGUCCUGACCCCGGAGGAGCUGCUCUACCGGGUAAGGGGGCCUCCUCUGCCAGACCCUAGAGACCUCUCUGGG | -0.939

Sample 4
Target: PABPC1L2, full length, GST fusion (mouse, UniProt A0ABA7IW68)
Method: RNAcompete
Molecule type: RNA
Sample: in vitro
Concentration: 20 nM
Notes: 7-mer, probes averaged, single round
Reference: mean of 7-mers
Reading: higher = stronger binding
Construct (chain): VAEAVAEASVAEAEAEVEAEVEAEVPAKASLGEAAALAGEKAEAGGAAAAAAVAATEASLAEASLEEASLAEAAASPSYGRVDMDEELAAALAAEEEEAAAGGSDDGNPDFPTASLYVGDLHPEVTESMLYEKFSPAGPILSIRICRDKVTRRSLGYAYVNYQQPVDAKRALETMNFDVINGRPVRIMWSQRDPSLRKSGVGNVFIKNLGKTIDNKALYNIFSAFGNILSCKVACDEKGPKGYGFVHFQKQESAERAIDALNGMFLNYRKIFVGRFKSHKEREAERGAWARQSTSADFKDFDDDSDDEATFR
Sequence | 7-mer Z-score
CUCGCAU | -0.387
GGGUCUA | 0.135
AUGCGGA | 0.307
UUGUUAU | -0.434
UACGAAC | -0.18
UCGCAAG | -0.364
CGGACUU | -0.162
UAAGGGC | 0.283
ACUAAGU | -0.124
AGCAUCC | -0.242
AUGAUAA | 0.376
GGACCCA | 0.0551
AUCUUCA | -0.22
CUUUUGU | -0.331
CAAGGUC | -0.161
GCUACGG | -0.05
ACGCUAC | -0.0971
UUUGAAU | -0.231
UCCUACA | -0.336
CAUGGCC | -0.0699
AAUUUUA | 0.133
AGAAAGC | 0.729
GACUUUU | -0.235
AUACGAU | -0.0283
CUCGAGA | -0.144

Sample 5
Target: ABI1, truncated, D143A, DHFR fusion (Arabidopsis thaliana, UniProt P49597)
Method: DHFR PCA, dose-response
Sample: yeast
Notes: Hill fit, not affinity, not high confidence
With: (+)-ABA, dose series
Reading: lower = more sensitive
Starting sequence: PYL1, truncated, DHFR fusion (Arabidopsis thaliana, UniProt Q8VZS8); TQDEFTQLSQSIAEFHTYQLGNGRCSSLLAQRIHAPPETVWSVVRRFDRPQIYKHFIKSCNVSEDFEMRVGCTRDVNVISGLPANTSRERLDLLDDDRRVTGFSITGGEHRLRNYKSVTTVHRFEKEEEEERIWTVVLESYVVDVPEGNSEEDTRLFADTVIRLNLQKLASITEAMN
Change | ABA EC50
T101I | 23.3 µM
Y141T | 37.8 µM
W41C | 2.62 µM
Y115N | 898 µM
V161N | 283 µM
Y141E | 122 µM
T135Y | 109 µM
V137S | 3.84 µM
P83G | 172 µM
S140F | 1690 µM
N149T | 107 µM
N165Y | 375 µM
V161E | 0.185 µM
V137Y | 438 µM
W41P | 1140 µM
Y141P | 0.358 µM
W41K | 2.13 µM
T135P | 71 µM
L166G | 854 µM
T135Q | 1.9 µM
I57P | 8.99 µM
P83V | 1180 µM

Sample 6
Target: CCNA1, cyclin fold, Cln2 fusion (human)
Method: yeast growth competition, sequencing
Sample: yeast
Notes: weak parent motif
Reference: not given
Reading: higher = stronger binding
Starting sequence: AKAP12 docking peptide (human); GSPLKKLFTSTGL
Change | normalised enrichment score
F8A | 0.195
T9A | 0.0827
G12A | -0.153
K5R F8L | -0.575
K5A | 0.0723
T11A | -0.254
P3A | 0.182

Some of these lines once more (sample 4):
Sequence | 7-mer Z-score
UUUGAAU | -0.231
UCCUACA | -0.336
CAUGGCC | -0.0699
AAUUUUA | 0.133
AGAAAGC | 0.729
GACUUUU | -0.235
AUACGAU | -0.0283
CUCGAGA | -0.144
